Measurements of several laboratories.
Numbered parts are unrelated; each lists some results of a single study. Positions count from the first letter of the parent shown.

Study 1
Target: ABI1, truncated, D143A, DHFR fusion (Arabidopsis thaliana)
Technique: DHFR PCA, deep sequencing
Matrix: yeast
Notes: methotrexate growth selection, single substitutions
Together with: (+)-ABA 4.8 µM
Reference: wild-type fitted maximum
Reading: higher = stronger binding
Parent: PYL1, truncated, DHFR fusion (Arabidopsis thaliana); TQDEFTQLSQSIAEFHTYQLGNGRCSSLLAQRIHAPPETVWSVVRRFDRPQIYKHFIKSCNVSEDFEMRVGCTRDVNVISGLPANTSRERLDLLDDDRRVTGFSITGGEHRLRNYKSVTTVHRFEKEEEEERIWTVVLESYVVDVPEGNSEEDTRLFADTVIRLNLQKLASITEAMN
Variant | relative binding score
E67N | 62.3%
E89I | -16.5%
R88E | 68.4%
R132N | 91%
K126V | 89.3%
F157G | -2.57%
R49G | 13%
Y18K | 40.2%
D92W | -3.6%
G81E | 2.29%
P36L | 51.9%
G81V | -4.55%
I133Y | 74%

Study 2
Target: RNA binding protein fox-1 homolog 2, RRM domain, GST-SBP tag (RBFOX2, Homo sapiens, UniProt O43251-10, residues 100-194)
Technique: RNA Bind-n-Seq
Molecule type: RNA
Matrix: in vitro
Concentration: 365 nM
Notes: natural RNA segment, single round, ends assumed
Reference: no-protein control
Reading: higher = stronger binding
Residues (chain): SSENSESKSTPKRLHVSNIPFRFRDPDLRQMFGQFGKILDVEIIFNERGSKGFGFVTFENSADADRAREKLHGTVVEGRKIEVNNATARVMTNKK
Strand | RBNS enrichment (R)
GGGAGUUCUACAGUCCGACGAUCCAAAGGGGGUCACUGGCUUUACCUGGAGCCUGGCCAGCUAGGUAGCUGGACGUAUAUAAAGGGUCCUCGUGCUUGUUCUUUGCCAGUUCCCACUAGAAAAGGCGCUCCUGUGGAAUUCUCGGGUGCCAA | 3.04
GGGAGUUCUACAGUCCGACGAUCGCCGCCCUCUGCUCUCAGUGGUCUCUGCUACUGAUGAAUCCAGUGGGUUUCCUUUCAUAUUCUCCUGGCCAACUCCAGAGUGGCCUCCUAACCCAGCAGGCCCACCCCUCUGGAAUUCUCGGGUGCCAA | 0.237
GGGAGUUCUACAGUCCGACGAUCUGGUUUUUAACCCUUUUAGACUAAGCCUCAAAAAUAUUAUCAUACCUGUGUACUUGUACAUUAAAAACAAAAUUAUUGCUGAGUAAGAAGAUAUUUAAUAUAUGAAACUCUGGAAUUCUCGGGUGCCAA | 0.403
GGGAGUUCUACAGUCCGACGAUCAGCACUUCUUCUGGAUUUGAAUUCAAAUGUCAUUCUUAACAUUUCUGUUGAUGCUUCUUUGAAAAUCUUCGCUUGAUUUUGGCUGUAAAUCACCUACCCUGUUAAAUGCUUGGAAUUCUCGGGUGCCAA | 0.282
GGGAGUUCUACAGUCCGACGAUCAUAUCCAAGUGCUUCCUCCAAGUCAACAUGUAUUUCCUCUCCCCAUUUUCAGGCCCUGUGGGGCUCCUGAGGUUCAGUAGCUGGGAUGUUCCCUCUUUCCUUCAAGUGCCUGGAAUUCUCGGGUGCCAA | 0.655
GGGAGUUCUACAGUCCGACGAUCGACCUCUGCCUGCCUUGUGAGUACGACUUGUGGCACUUAGCAUGGUGUUCAACACACGAAAUGCUCAAUAAACAUCAGGCUGUCCCCUCCUGGGGCAGGCCUUGAAACGGUGGAAUUCUCGGGUGCCAA | 2.67
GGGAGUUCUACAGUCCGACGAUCAGCCUGCACUCUGUUUAGUCAGCCGACUCAGGUUAUCUUCAGGGAAGGUAUGGAGGCAUGGUUUGUUUCGGUUCAUCUCCAGGAUGUAUACAGUGAAGACAAACCAAAUAUGGAAUUCUCGGGUGCCAA | 0.262
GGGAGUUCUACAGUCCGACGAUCGUCAAGAAUUCCAGAGAAGGCUGCUCCUAAAAUGUCUACUUGCAGCCCAAUACCAGAGCAUAAACUAUCCAUUCUGGGGUCUGGCUUUAGAAAUCAUCUUUGUGGGAAGAUGGAAUUCUCGGGUGCCAA | 0.964
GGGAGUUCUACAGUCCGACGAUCAUGUUACUCUAAAGACCCCAGCAACCCAGAGAGAGCCCUGCUUCCAUCUUCCCAGGGCAGGACCACAGUGGUAAAUCCUAAGGAUGGCCCAGGUGGCCUGUGUGAGCGCCUGGAAUUCUCGGGUGCCAA | 0.364
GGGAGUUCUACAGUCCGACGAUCUUUGUUUCAAUUCUAAGAAACACUUGCAGCUCUAGUAUUCACUUGAGUCUUCCUGUUUUUCCUGUACCGGGUCAUGGUAAUUUUUGGUUGUUUUGGUUGUUUUCUUAAAAUGGAAUUCUCGGGUGCCAA | 0.56
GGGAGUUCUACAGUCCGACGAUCAGGCCCUCAAUUGUAGUUGUUUCCAGCUGAAUUAAGAGCUUUAAAGUUUCUGGCAUUAGCAGAUGAUUUCUGUUCACCUGGUAAGAAAAGAAUGAUAGGCUUGUCAGAGCUGGAAUUCUCGGGUGCCAA | 0.311
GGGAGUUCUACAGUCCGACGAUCUUUACUGAUACCCCACAGUGGAAGGCAUUUCUUCCAGAUAUUUUCCAGAUACCUUGGCCGCCAAACUUCGUUUUCAAACACUGUGUUUUAUUGUGUAGACCUUGAAAACCUGGAAUUCUCGGGUGCCAA | 0.378

Study 3
Target: Sal-like protein 4, full length isoform A (SALL4, Homo sapiens, UniProt Q9UJQ4, residues 1-1053)
Chain of UniProt Q9UJQ4 (whole entry, looked up): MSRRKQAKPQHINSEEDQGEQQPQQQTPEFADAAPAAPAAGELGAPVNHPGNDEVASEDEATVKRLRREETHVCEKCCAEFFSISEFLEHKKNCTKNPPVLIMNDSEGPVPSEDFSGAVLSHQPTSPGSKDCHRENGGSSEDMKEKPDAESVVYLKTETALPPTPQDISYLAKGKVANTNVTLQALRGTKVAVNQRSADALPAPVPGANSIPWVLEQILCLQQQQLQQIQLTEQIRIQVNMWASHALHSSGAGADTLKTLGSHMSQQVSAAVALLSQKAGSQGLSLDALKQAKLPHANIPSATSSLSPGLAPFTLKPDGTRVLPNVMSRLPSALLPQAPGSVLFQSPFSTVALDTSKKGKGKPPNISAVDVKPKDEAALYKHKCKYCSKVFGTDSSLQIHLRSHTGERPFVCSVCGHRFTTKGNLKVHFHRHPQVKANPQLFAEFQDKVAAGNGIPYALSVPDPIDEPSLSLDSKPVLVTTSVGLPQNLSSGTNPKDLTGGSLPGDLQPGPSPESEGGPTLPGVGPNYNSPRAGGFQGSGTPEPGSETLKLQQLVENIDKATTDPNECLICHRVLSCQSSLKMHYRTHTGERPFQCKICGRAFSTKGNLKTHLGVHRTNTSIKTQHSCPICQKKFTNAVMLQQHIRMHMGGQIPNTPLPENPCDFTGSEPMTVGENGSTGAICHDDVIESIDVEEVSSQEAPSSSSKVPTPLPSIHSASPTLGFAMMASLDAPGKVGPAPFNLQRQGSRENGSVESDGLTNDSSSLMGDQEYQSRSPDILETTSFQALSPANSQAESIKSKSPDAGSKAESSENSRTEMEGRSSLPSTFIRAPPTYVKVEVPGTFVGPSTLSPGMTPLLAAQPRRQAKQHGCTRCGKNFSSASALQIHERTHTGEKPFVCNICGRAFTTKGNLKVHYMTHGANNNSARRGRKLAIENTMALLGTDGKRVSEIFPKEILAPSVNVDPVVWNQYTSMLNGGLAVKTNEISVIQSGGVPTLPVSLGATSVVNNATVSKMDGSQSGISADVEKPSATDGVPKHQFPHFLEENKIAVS
Technique: universal PBM
Molecule type: double-stranded DNA, one strand shown
Matrix: in vitro
Concentration: 600 nM
Notes: 8-mer, flanks averaged, mean of replicates
Reading: higher = stronger binding
Strand | E-score
GTGTTCTA | 0.187
ATCGATGA | 0.128
GGTAAAAA | 0.154
CGTCTAAA | -0.00836
ATGTCTAC | -0.0279
CGTTCCAC | -0.0674
CACAATAC | 0.0551
GGAGGACA | 0.0253
CTCATGCC | -0.184
GCGGCTCC | -0.407
GACATCTA | 0.17
AAGATTGC | 0.0658
AACCCAAA | -0.0002
CGCATACC | -0.047
GATCAAGA | 0.0738
ATCTTGTG | 0.0333
CCGCAACA | 0.0172
GAATGGAA | 0.0303
ATCCTAAG | -0.132
ATCTGCTG | -0.0439

Study 4
Target: Ras GTPase-activating protein-binding protein 1, full length (G3BP1, Homo sapiens, UniProt Q13283)
Chain of UniProt Q13283 (whole entry, looked up): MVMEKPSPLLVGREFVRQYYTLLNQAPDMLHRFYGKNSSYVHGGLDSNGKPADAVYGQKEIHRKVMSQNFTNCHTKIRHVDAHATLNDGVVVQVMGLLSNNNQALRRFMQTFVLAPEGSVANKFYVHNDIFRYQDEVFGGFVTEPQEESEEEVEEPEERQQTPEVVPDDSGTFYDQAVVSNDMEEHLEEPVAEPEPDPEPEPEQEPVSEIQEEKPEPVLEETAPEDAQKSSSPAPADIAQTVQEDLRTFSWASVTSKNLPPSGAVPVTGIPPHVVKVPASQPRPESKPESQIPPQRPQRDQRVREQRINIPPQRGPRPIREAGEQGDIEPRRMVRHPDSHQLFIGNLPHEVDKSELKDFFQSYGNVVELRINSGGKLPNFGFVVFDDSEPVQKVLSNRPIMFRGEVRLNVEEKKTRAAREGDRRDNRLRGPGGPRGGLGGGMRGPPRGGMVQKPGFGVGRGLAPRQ
Technique: RNA Bind-n-Seq
Molecule type: RNA
Matrix: in vitro
Concentration: 200 nM
Notes: whole 134-nt RNA, ends assumed
Together with: 150 mM LiCl
Reference: input library
Reading: higher = stronger binding
Each molecule: 7-deaza-guanosine replaces G
Strand | log2 enrichment
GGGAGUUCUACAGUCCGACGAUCCCUGUGCUACACAUCGUAUGUACCGAAUCAAACCCCCCCAAACCCCCCCAAAUUUUUAAAAAAGUAUUAUGUUACGCCGUUCGGAUCUGCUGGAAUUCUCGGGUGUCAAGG | 0.555
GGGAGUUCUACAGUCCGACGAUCUGGGAGGUGGAUUUUGUUUAUUUUUUUAGCUCAUUUCCAGGGGUGGGAAUUUUUUUUUAAUAUGUGUCAUGGAUAAAGUUGUUUUUGAAAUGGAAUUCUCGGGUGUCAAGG | 0.101
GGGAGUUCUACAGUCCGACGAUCUGGCUCUGGUGGCAUGCGGGGAGGAAGAGGUGGCCUCAUGGAUCGUGGUGGUCCCGGUGGAAUGUUCAGAGGUGGCCGUGGUGGAGACAGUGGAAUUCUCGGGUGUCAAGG | 0.0949
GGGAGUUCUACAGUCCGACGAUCACCAUGCAGGUGGGCAUCUUUGGGAAGUGGGGCAAGGGGGGGAUAGGGAGGGGGGUAACACUUGGGGAACAGGUGGUCCCAGGUCGUUUCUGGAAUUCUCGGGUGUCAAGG | 0.211
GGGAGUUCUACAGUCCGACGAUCUGGGAGGUGGAUUUUGUUUAUUUUUUUAGCUCAUUUCCAGGGGUGGGAAUUUUUUUUUAAUAUGUGUCAUGAACAAAGUUGUUUUUGAAAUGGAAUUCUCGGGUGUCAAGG | -0.188
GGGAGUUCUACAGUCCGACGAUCCAAGUCCUGUGCUACACAUCGUAUGUACCGAAUCGGGGAGGGGUUUGGGGUGGGGAAAGUAUUAUGUUACGCCGUUCGGAUCUGCACUUCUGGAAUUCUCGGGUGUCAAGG | 0.343
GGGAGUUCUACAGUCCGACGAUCAAGUCCUGUGCUACACAUCGUAUGUACCGAAUCAAACCCCCAAACCCAAACCCAAAAAAGUAUUAUGUUACGCCGUUCGGAUCUGCACUUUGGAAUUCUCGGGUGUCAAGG | 0.0558
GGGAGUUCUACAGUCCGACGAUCCCUCAAGUCCUGUGCUACACAUCGUAUGUACCGAAUCGGCGGCGGGGCGGGGAAAGUAUUAUGUUACGCCGUUCGGAUCUGCACUUCCAGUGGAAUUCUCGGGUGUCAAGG | -0.0802
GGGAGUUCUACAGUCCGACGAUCUCCUGUGCUACACAUCGUAUGUACCGAAUCGGGAAAAAAGGGAAAAAAGGAAAAAAGGGGAAAGUAUUAUGUUACGCCGUUCGGAUCUGCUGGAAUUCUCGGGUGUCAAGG | -0.432
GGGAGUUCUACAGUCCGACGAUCCACAGACAACACGCACCCACACAGACACAGAGGGAAGGGGUUGGGAUGGGGACAGGGUGCACAGCAGGGCGGGGUAGGACCCAAACCCCUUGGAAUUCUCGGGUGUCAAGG | -0.579
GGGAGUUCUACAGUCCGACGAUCGCAGGAAGUAAAAACAAAUCGAAAUGCUUCGGAUAGUGGCAGGGGUGGGGGUUGCUAAGGAAAGGGUGGGAUGGGAGUGGGUAAAGAGUUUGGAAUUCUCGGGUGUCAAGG | 0.275

Study 5
Target: Max dimerization protein 1, bHLH-zipper, MAX partner unstated (MXD1, Homo sapiens, UniProt Q05195, residues 56-136)
Technique: protein-binding microarray
Molecule type: double-stranded DNA, one strand shown
Matrix: in vitro
Concentration: not given
Notes: k-mer, scored over probes, only values ≥0.25
Reading: higher = stronger binding
Target sequence (chain): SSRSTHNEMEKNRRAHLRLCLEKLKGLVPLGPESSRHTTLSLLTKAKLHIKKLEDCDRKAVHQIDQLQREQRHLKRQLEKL
Strand | E-score
CACACTCC | 0.253
CAAACGTG | 0.336
CGTGGGGC | 0.292
CGTGGAAA | 0.308
CGCATGCG | 0.374
CACGGGTA | 0.292
AGGTGTGC | 0.266
ATCTCATG | 0.324
ACAATGTG | 0.351
ACATGGCA | 0.293
GGGTGGGA | 0.307
ACACACAT | 0.323
GCACACGC | 0.38
AAGGGGGA | 0.272
ACATGTCA | 0.254
CACGCCTC | 0.297
CCGAGGAA | 0.267
GCCACACC | 0.262
CACCGTGC | 0.273
GCATGACC | 0.31
GCCACGCA | 0.306

Study 6
Target: CRIPT, C-terminal peptide
Technique: DHFR complementation, deep sequencing
Matrix: yeast
Notes: single substitutions, model-inferred values
Reference: wild type
Reading: higher = weaker binding
Parent: ERBIN, PDZ domain 1 (human); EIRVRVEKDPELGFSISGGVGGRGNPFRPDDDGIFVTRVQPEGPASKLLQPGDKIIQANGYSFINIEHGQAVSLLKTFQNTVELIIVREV; partner TKNYKQTSV
Variant | binding free energy change
N65F | 0.122 kcal/mol
A71C | 0.115 kcal/mol
A71R | 1.06 kcal/mol
I55G | 0.3 kcal/mol
D9P | 1.5 kcal/mol
P10M | -0.554 kcal/mol
E11V | -0.823 kcal/mol
Q70I | 0.062 kcal/mol
G21N | 0.072 kcal/mol
I66R | 0.341 kcal/mol
I64E | -0.0115 kcal/mol
V90I | -0.0369 kcal/mol
D9K | -0.314 kcal/mol
E7G | -0.0366 kcal/mol
P29R | 0.144 kcal/mol
R28H | -0.0364 kcal/mol
S62M | 0.0812 kcal/mol
R28Q | 0.0264 kcal/mol

A few entries again (study 3):
Strand | E-score
ATCTTGTG | 0.0333
CGTTCCAC | -0.0674
ATCGATGA | 0.128
AAGATTGC | 0.0658
ATCCTAAG | -0.132
CTCATGCC | -0.184
CGCATACC | -0.047
CACAATAC | 0.0551
GTGTTCTA | 0.187
GCGGCTCC | -0.407
ATCTGCTG | -0.0439
GGTAAAAA | 0.154
GGAGGACA | 0.0253
